Measured values pooled from the literature.
Parts stem from different laboratories: compare values within a part only. Positions count from the first letter of the parent shown.

Set 1 — technique: RNA Bind-n-Seq; molecule type: RNA; sample: in vitro; concentration: 365 nM; relative to: no-protein control; direction: higher = stronger binding
Target: RNA binding protein fox-1 homolog 2, RRM domain, GST-SBP tag (RBFOX2, Homo sapiens, UniProt O43251-10, residues 100-194)
Notes: natural RNA segment, single round, ends assumed
Constant ends, left off below: GGGAGUUCUACAGUCCGACGAUC … UGGAAUUCUCGGGUGCCAA
Construct (chain): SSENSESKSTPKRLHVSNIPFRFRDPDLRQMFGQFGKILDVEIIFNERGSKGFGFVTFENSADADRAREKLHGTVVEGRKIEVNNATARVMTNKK
Sequence	RBNS enrichment (R)
AGUAGCUUCCCAAGCAGCUGCUCCUCUCAGGAGCCUGCUUAACACUUGCGCCAGCUCAGAGGCCUGCCUCUAUGGUCCAGUGCAUCCCCGCUGUGCUCAGAUGCUGACGA	0.207
AACAAAAGGAAAGAAACUACCUUUUUAUAAUGCACAACUGUUGAUGGUAGGCUGUAUAGUUUUUAGUCUGUGUAGUUAAUUUAAUUUGCAGUUUGUGCGGCAGAUUGCUC	0.698
CUGGGGCAGGUGCAUAGCAGUGCAGUGGGAAGGGACAGAGGAGAUCUUAGAAUUUUGAGGAAAAUCUGGGACUUGAGACCUGGAUUCUAACAGACCAACUGCAUGUGUGU	9.86
AAAGAGUAUUAGCUUCUGCUUCCGGACUCAGUCUUUGUUGAGUGGGCCACUUCCAGGGGUGUGCCCGGGGUUAGGCAAGUGGCAGACGAGGGUUCUUAUUUGAGGCUUUG	0.906
CUGCCCAAUUUUAAAGUUAUUCUUUUUGGGAGUGAGACAGGAUUAACUAAACAAGUUUGUGUUUUUUAAACCUUGGGCAUUUCAGAGAAAGAGCUGGUCUGGAGUGUCUC	1.36
GAGGGGGUUGGGCUGGAUUUCUUUGUAGAUGUGGACCACCAAGGGGUUGUUGAAAACUAAUUGUAUUAAAUGUCUUUUGAUAAGCCUUCUGCUCACACUUUUGUGACUGU	0.443
GUUCGAGACUAGCCUGGCCAACAUGGUGAAACCCCAUCUCUACUAAAAAUACAACAGCCAGGUGUGAUGGUGCACGCUCGUAAUCCCGGCUACUCAGGAGGCUGAGGCAG	1.02
UAAAUUUGGAGAUACGUAAAGCCUUGUUUUCUCUGUGUGGUUCAGCUACUUUCCAUUUGGUAUUACACAGUCAAAUUUACAUUUAUCUAUUAAAAUUGCCAUUUUAUUAA	8.07

Set 2 — technique: protein binding microarray; molecule type: double-stranded DNA, one strand shown; sample: in vitro; concentration: not given; relative to: not given; direction: higher = stronger binding
Target: Histone acetyltransferase KAT6A, winged helix 1, GST fusion (KAT6A, Homo sapiens, UniProt Q92794, residues 1-85)
Notes: 8-mer, flanks averaged, mean of 2 arrays, mostly near background
Target sequence (chain): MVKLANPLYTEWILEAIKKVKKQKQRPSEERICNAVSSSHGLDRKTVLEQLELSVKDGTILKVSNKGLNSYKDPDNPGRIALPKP
Sequence	E-score
ATGATGAC	-0.156
TAAACCGA	-0.0805
GAATTACC	0.0516
CTCTGTGC	0.05
CTATTCAA	-0.138
GTGGAATA	-0.035
CGGAAAAG	0.189
CTGCTTCA	-0.227
CACCGCTA	0.209
GCGTCGAC	0.138
CTCTGTTA	-0.0629
CGTCGGTC	0.332
GATGCGTA	0.09
CCCCTACC	-0.185
CAGAGATG	-0.0663
CGGCGGAA	0.439
CGACTCGA	-0.139
ACTTCTCA	-0.265
ACAGACTA	-0.215
AACTTGTC	0.0345
GCTTTGCA	-0.0269
CTACCTTC	-0.0832
CGTGAGAC	0.127
AAAGGTCC	-0.179
CACATCGA	-0.0507

Set 3 — target: CCNB2, cyclin fold, Cln2 fusion (human); technique: yeast growth competition, sequencing; sample: yeast; notes: weak parent motif; relative to: not given; direction: higher = stronger binding
Starting sequence: RB1 docking peptide (human); PKPLKKLRFDIEG; partner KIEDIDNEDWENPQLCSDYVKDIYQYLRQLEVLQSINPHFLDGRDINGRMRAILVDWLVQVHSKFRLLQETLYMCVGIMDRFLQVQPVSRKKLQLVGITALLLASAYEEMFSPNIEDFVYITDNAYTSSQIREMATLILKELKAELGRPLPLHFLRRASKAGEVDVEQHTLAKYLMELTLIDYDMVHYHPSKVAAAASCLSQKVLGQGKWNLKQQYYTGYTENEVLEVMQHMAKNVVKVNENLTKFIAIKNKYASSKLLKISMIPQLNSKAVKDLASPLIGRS
Substitution	normalised enrichment score
K6Y	0.164
I11P	0.207
R8C	-0.292
K5P	0.226
K2A	0.289
P1T	0.308
I11M	0.256
R8L	-0.025
G13P	0.422
I11C	0.456
L7D	-0.537
P3Q	-0.0965
K2Q	0.173
K2L	0.529
K6Q	-0.095
P1M	-0.164
F9G	0.116
K2C	0.475
L7T	-0.055
D10N	0.341
D10E	-0.409
P3E	0.403
R8S	-0.043
L7R	0.669
K5I	0.365

Set 4 — technique: RNA Bind-n-Seq; molecule type: RNA; sample: in vitro; concentration: 1 µM; notes: whole 134-nt RNA, ends assumed; added: 150 mM KCl; relative to: input library; direction: higher = stronger binding
Target: Ras GTPase-activating protein-binding protein 1, C-terminal RGG region (G3BP1, Homo sapiens, UniProt Q13283)
UniProt Q13283, sequence (whole entry, looked up): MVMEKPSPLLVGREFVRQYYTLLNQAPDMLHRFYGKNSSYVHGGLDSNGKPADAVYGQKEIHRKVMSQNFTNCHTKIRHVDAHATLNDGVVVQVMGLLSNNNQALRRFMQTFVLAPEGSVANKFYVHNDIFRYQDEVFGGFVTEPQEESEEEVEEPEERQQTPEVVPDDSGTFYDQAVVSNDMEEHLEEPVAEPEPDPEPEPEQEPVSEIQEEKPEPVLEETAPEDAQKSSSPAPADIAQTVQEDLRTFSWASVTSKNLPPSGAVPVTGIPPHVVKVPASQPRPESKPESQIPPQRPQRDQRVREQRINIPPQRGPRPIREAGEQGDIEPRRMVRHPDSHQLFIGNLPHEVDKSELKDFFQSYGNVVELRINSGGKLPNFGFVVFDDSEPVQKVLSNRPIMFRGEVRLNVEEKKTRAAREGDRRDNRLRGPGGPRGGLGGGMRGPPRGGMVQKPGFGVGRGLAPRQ
Constant ends, left off below: GGGAGUUCUACAGUCCGACGAUC … UGGAAUUCUCGGGUGUCAAGG
Sequence	log2 enrichment
AGUCCUGUGCUACACAUCGUAUGUACCGAAUCGGGGAAAAAGGAAAAAGGAAAAAGGGAAAGUAUUAUGUUACGCCGUUCGGAUCUGCAC	-1.84
ACCAUGCAGGUGGGCAUCUUUGGGAAGUGGGGCAAGGGGGGGAUAGGGAGGGGGGUAACACUUGGGGAACAGGUGGUCCCAGGUCGUUUC	2.48
UGUGCUACACAUCGUAUGUACCGAAUCGGGGUUUUUUUGGGUUUUUUUGGGUUUUUUUGGGGAAAGUAUUAUGUUACGCCGUUCGGAUCU	-0.72
CUCAAGUCCUGUGCUACACAUCGUAUGUACCGAAUCGGAAGGGAAGGGAAGGGGAAAGUAUUAUGUUACGCCGUUCGGAUCUGCACUUCC	-0.256
AAGUCCUGUGCUACACAUCGUAUGUACCGAAUCGGGUUUGGGUUUUUGGGAAAGGGAAAGUAUUAUGUUACGCCGUUCGGAUCUGCACUU	1
UCAAGUCCUGUGCUACACAUCGUAUGUACCGAAUCGGGGAAGGAAGGGAAGGGGAAAGUAUUAUGUUACGCCGUUCGGAUCUGCACUUCC	-0.33
ACCAUGCAGGUGGGCAUCUUUGGGAAGUGGGGCAAGGGGGGGAUAGUGAGGGGGGUAACACUUUGGGAACAGGUGGUCCCAGGUCGUUUC	2.19
AGUCCUGUGCUACACAUCGUAUGUACCGAAUCGGGAAAAAGGGAAAAAGGAAAAAGGAAAGUAUUAUGUUACGCCGUUCGGAUCUGCACU	-1.83
ACAAUGCAGGUGGGCAUCUUUGGGAAGUGGGGCAAGGGGGGGAUAGGGAGGGGGGUAACACUUUGGGAACAGGUGGUCCCAGGUCGUUUC	-1.14

Excerpt of the above (set 3):
Substitution	normalised enrichment score
I11M	0.256
R8L	-0.025
G13P	0.422
I11C	0.456
L7D	-0.537
P3Q	-0.0965
